Measured values gathered from unrelated publications.
Parts stem from different laboratories: compare values within a part only. Substitutions count along the parent as printed.

Block 1 — technique: RNA Bind-n-Seq; form: RNA; medium: in vitro; tested at: 1 µM; setting: whole 134-nt RNA, ends assumed; together with: 150 mM KCl; relative to: input library; direction: higher = stronger binding; measurement: log2 enrichment
Target: Ras GTPase-activating protein-binding protein 1, C-terminal RGG region (G3BP1, Homo sapiens, UniProt Q13283)
UniProt Q13283, sequence (whole entry, looked up): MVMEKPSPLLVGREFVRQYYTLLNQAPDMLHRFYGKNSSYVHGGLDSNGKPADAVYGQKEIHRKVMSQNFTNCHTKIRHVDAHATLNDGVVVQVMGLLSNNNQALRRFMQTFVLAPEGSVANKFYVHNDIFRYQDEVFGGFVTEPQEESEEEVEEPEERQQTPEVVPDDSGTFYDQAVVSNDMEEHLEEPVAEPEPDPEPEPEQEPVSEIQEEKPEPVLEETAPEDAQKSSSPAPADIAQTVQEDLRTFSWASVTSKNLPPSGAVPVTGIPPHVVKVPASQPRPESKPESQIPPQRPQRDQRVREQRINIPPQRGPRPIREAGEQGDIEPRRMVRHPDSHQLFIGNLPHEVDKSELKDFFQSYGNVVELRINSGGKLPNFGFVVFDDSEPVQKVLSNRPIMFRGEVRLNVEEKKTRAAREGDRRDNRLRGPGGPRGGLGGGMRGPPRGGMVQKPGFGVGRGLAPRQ
Strand = GGGAGUUCUACAGUCCGACGAUCCCUGUGCUACACAUCGUAUGUACCGAAUCGGGUUUUUUUGGUUUUUUUGGGUUUUUUUGGAAAGUAUUAUGUUACGCCGUUCGGAUCUGCUGGAAUUCUCGGGUGUCAAGG; result = -1.28
Strand = GGGAGUUCUACAGUCCGACGAUCUGUGCUACACAUCGUAUGUACCGAAUCGGAAAAAAAGGGGAAAAAAAGGGGAAAAAAAGGGGAAAGUAUUAUGUUACGCCGUUCGGAUCUUGGAAUUCUCGGGUGUCAAGG; result = -0.822
Strand = GGGAGUUCUACAGUCCGACGAUCUGGGAGGUGGAUUUUGUUCAUUUUUUUAGCUCAUUUCCAGGGGUGGGAAUUUUUUUUUAAUAUGUGUCAUGAAUAAAGUUGUUUUUGAAAUGGAAUUCUCGGGUGUCAAGG; result = 1.98
Strand = GGGAGUUCUACAGUCCGACGAUCAGUCCUGUGCUACACAUCGUAUGUACCGAAUCGGGGUGGGGAAAAAGGGGAAAGGGGAAAGUAUUAUGUUACGCCGUUCGGAUCUGCACUUGGAAUUCUCGGGUGUCAAGG; result = 2.53

Block 2 — target: CCNB2, cyclin fold, Cln2 fusion (human); technique: yeast growth competition, sequencing; medium: yeast; setting: weak parent motif; relative to: not given; direction: higher = stronger binding; measurement: normalised enrichment score
Starting sequence: PKN2 docking peptide (human); VSAVRKLDFSDTM; partner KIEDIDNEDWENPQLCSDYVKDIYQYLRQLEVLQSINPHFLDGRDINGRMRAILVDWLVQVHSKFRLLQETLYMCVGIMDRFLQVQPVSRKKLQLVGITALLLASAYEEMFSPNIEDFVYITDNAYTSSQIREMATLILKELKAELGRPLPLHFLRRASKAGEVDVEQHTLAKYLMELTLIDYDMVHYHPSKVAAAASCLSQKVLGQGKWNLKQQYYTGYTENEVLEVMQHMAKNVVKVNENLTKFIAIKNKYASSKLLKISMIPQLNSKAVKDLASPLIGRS
Variant = K6T; result = 0.175
Variant = K6H; result = 0.306
Variant = R5T; result = -0.188
Variant = F9H; result = 0.253
Variant = A3D; result = -0.361

Block 3 — technique: protein-binding microarray; form: double-stranded DNA, one strand shown; medium: in vitro; tested at: 0.8 µM; setting: whole 60-bp probe, no competitor; direction: higher = stronger binding; measurement: fluorescence intensity
Target: Centromere-binding protein 1, full length, N-terminal tag (CBF1, Saccharomyces cerevisiae, UniProt P17106, residues 1-351)
UniProt P17106, sequence (whole entry, looked up): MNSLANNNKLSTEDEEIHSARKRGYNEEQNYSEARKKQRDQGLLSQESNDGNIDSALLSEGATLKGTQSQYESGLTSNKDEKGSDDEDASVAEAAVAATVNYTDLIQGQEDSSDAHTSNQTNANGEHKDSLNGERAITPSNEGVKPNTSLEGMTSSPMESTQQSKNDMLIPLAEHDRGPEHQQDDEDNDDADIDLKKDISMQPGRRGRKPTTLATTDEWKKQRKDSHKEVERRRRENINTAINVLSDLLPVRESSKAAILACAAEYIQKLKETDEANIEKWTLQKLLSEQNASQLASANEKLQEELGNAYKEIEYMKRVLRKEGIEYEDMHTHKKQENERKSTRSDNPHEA
Strand = GAAATCAGCTTGATTCACGGGATGTTACTTATCTAGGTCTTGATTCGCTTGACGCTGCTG; result = 626 a.u.
Strand = GAACCTTATTTTTATCCCGTGTTATATTTAATCTAGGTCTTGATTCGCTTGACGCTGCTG; result = 1080 a.u.
Strand = GAAGTGGTTATTGATCACCAGAAAGTTTGGCATTAGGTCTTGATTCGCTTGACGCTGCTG; result = 543 a.u.
Strand = GAACTTTTTACACCACATGTGATAGTATACTACTAGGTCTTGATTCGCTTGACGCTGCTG; result = 1790 a.u.
Strand = CTAGGTTCATCTTCTGATGTTATGTCGAGAGCTTTCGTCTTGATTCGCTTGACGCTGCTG; result = 532 a.u.

Single results of other studies
Substance = PhoQ, residues 284 288 289 292 302 303 SSTLLI; target = PhoP, residues 12 14 15 18 19 SPWRL (Escherichia coli, UniProt P23836); assay = Sort-seq, measured: YFP reporter; system = E. coli; conditions = PhoQ-PhoP variant library, together with: 10 µM Mg2+; how to read = relative to: high Mg2+ state, higher = stronger signaling; measurement = fold induction; result = 3.29

Repeated from above (single results of other studies):
Substance = PhoQ, residues 284 288 289 292 302 303 SSTLLI; target = PhoP, residues 12 14 15 18 19 SPWRL (Escherichia coli, UniProt P23836); assay = Sort-seq, measured: YFP reporter; system = E. coli; conditions = PhoQ-PhoP variant library, together with: 10 µM Mg2+; how to read = relative to: high Mg2+ state, higher = stronger signaling; measurement = fold induction; result = 3.29
